Experimental data gathered from unrelated publications.
A part holds a random share of what one study measured. Positions count from the first letter of the parent shown.

Sample 1
Target: ABI1, truncated, D143A, DHFR fusion (Arabidopsis thaliana)
Technique: DHFR PCA, deep sequencing
Matrix: yeast
Setting: methotrexate growth selection, single substitutions
Added: (+)-ABA 0.11 µM
Reference: wild-type fitted maximum
Reading: higher = stronger binding
Quantity: relative binding score
Starting sequence: PYL1, truncated, DHFR fusion (Arabidopsis thaliana); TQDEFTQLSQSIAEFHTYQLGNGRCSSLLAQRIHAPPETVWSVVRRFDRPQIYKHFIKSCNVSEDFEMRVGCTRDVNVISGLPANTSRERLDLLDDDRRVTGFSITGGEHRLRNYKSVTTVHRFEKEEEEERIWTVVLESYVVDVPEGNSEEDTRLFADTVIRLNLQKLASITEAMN
L29G: 0.278%
Y53T: 5.59%
K126C: 57.5%
Q51H: 23.6%
H110I: 4.62%
D65A: 6.78%
S59L: 0.242%
R123M: 2.81%
G107P: -2.06%
L164C: 21.6%
M176V: 9.29%
F5D: 2.59%
Q10I: 5.95%
T106I: 84.2%
R24S: 8.39%
E64V: 13.1%
L94T: -10.2%

Sample 2
Target: Ras GTPase-activating protein-binding protein 1, C-terminal RGG region (G3BP1, Homo sapiens, UniProt Q13283)
UniProt Q13283, sequence (whole entry, looked up): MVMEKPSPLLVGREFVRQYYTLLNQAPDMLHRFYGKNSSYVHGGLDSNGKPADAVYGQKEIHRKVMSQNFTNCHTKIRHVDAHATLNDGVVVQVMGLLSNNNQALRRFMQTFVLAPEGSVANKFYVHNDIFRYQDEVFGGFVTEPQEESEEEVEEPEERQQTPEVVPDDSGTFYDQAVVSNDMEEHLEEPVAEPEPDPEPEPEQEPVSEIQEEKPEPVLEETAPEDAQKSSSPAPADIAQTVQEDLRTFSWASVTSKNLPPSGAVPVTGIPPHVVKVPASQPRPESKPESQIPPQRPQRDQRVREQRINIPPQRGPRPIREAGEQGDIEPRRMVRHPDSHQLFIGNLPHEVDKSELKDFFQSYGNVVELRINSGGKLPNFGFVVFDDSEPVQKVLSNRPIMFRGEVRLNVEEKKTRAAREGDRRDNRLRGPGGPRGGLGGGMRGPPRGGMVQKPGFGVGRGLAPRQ
Technique: RNA Bind-n-Seq
Form: RNA
Matrix: in vitro
Tested at: 1 µM
Setting: whole 134-nt RNA, ends assumed
Added: 150 mM KCl
Reference: input library
Reading: higher = stronger binding
Quantity: log2 enrichment
All sequences stand within: GGGAGUUCUACAGUCCGACGAUC … UGGAAUUCUCGGGUGUCAAGG
GCAGGAAGUAAAAACAAAUGGAAAUCCUUCGGAUAGUGGCAGGGGUGGGGGUUGCUAAGGAAAGGGUGGGAUGGGAGUGGGUAAAGAGUU: 1.53
GUCCUGUGCUACACAUCGUAUGUACCGAAUCGGGUUUUUUGGUUUUUUGGUUUUUUGGAAAGUAUUAUGUUACGCCGUUCGGAUCUGCAC: -1.5
CCUCAAGUCCUGUGCUACACAUCGUAUGUACCGAAUCGGGUGGGUGGUGGGGAAAGUAUUAUGUUACGCCGUUCGGAUCUGCACUUCCAG: 1.04
CCUGUGCUACACAUCGUAUGUACCGAAUCGGAAAAAAAGGGAAAAAAAGGAAAAAAAGGGAAAGUAUUAUGUUACGCCGUUCGGAUCUGC: -1.92
GGACAAGAAUCCUUCAAGAAACAGGAAAAAACUCCUAAAACACCAAAAGGACCUAGUUCUGUAGAAGACAUUAAAGCAAAAAUGCAAGCA: -0.731
CCUGUGCUACACAUCGUAUGUACCGAAUCGGUUUUUUUGGUUUUUUUGGGGUUUUUUUGGGAAAGUAUUAUGUUACGCCGUUCGGAUCUG: -1.64
GCAGGAAGUAAAAUCAAAUGGAAAUGCUUCGGAUAGUGGCAGGGGUGGGGGUUGCUAAGGAAAGGGUGGGAUGGGAGUGGGUAAAGAGUU: 1.93
AGUCCUGUGCUACACAUCGUAUGUACCGAAUCGGGUGGGAAAAAAAGGGAAAAAGGGAAAGUAUUAUGUUACGCCGUUCGGAUCUGCACU: 0.09
UGGCCCUGGUGGCAUGCGGGGAGGAACAGGUGGCCUCAUGGAUCGUGGUGGUCCCGGUGGAAUGUUCAGAGGUGGCCGUGGUGGAGACAG: 1.76

Sample 3
Target: Interferon regulatory factor 3, full length, phosphomimetic (IRF3, Homo sapiens, UniProt Q14653, residues 1-427, S386D/S396D/S398D/S402D/T404D/S405D)
UniProt Q14653, sequence (whole entry, unmodified, looked up): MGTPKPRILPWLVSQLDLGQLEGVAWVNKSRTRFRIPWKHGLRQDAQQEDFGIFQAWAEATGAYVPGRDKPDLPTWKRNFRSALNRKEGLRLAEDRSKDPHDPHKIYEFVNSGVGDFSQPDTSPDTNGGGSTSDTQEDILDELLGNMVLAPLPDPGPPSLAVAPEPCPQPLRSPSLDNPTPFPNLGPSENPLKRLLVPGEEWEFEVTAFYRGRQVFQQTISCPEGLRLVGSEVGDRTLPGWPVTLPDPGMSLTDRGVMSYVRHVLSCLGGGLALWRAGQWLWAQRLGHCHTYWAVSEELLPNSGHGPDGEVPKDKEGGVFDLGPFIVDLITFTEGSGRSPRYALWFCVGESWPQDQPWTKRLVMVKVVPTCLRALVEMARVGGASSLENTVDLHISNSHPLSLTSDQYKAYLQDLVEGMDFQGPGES
Technique: protein-binding microarray
Form: double-stranded DNA, one strand shown
Matrix: in vitro
Tested at: 2540 nM top
Setting: 60-bp whole probe
Added: salmon DNA 0.4 mg/ml
Reference: random background probes
Reading: higher = stronger binding
Quantity: fitted relative affinity
All sequences stand within: GCCTAGCAC … GTCTTGATTCGCTTGACGCTGCTG
GACGCTTTCAGTATCGAGACGTGCTAG: 2.39 z-score
GACTTTCTTTCAAATGAAGGAGTGCTA: 1.59 z-score
CTCAGGTAATATTTCCTGCTGTGCTAG: -0.12 z-score
TCTTCTGGTGTGTCTGAAGAGTGCTAG: 0.382 z-score
TTAAGTTTCCTTCTCCTTTAGTGCTAG: 11.4 z-score
TCAACAATGATGTTTTGAACTGTGCTA: -0.347 z-score
TTAGCACTGGGGACTGGGTTAGTGCTA: -1.13 z-score
TCATGTTTCCTTGTACGACTGTGCTAG: 3.98 z-score
GACGGTATCGGTTTCGGTACGTGCTAG: 8.71 z-score
GCTCCTCTTTTTTTGGTAATGTGCTAG: 1.18 z-score
GCCGAACTGAGTATCGAGACGTGCTAG: 1.18 z-score
TTAGATATCGGGTTTCGCTTAGTGCTA: 1.53 z-score
ATTCCTCTCACCTCGGCCTCGTGCTAG: 1.44 z-score
ATTTAAGTTTCACTCTGCATGGTGCTA: 3.68 z-score
GACGGTCTGGACTATCGGGACGTGCTA: -0.0932 z-score
CTAGGACTGGGGACTGGGTTAGTGCTA: -1.03 z-score
TTTTGAAGTTTGGCGTTGACGTGCTAG: 0.141 z-score
TTAGGTTTTCTACTGCTTTAGTGCTAG: 0.577 z-score
TTCGGTATCCTTTTCCTTTAGTGCTAG: 8.26 z-score

Sample 4
Target: CCNF, cyclin fold, Cln2 fusion (human)
Technique: yeast growth competition, sequencing
Matrix: yeast
Setting: strong parent motif
Reference: not given
Reading: higher = stronger binding
Quantity: normalised enrichment score
Starting sequence: PKN2 docking peptide (human); VSAVRKLDFSDTM
VRAVRKLDFSDTM [S2R]: 7.57
VSASRKLDFSDTM [V4S]: 6.92
VSAVRDLDFSDTM [K6D]: 0.292
VSAVRTLDFSDTM [K6T]: 6.04
VSAVRKLDPSDTM [F9P]: 0.596
VSQVRKLDFSDTM [A3Q]: 4.89
VSAVRKLDFSDYM [T12Y]: 7.54
VSAVRKLIFSDTM [D8I]: 8.35
VSAVRKPDFSDTM [L7P]: -0.17
VSAVRKLDSSDTM [F9S]: 0.142
VSGVRKLDFSDTM [A3G]: 5.94
VSAVRKMDFSDTM [L7M]: 0.386
VSAERKLDFSDTM [V4E]: 3.26
VSAVRKLDNSDTM [F9N]: -0.0371
VSAVRKLDFSFTM [D11F]: 7.5
VSAVRKCDFSDTM [L7C]: 0.0482
VSAVRKLEFSDTM [D8E]: 7
VSFVRKLDFSDTM [A3F]: 5.81
VAAVRKLDFSDTM [S2A]: 7.18
VSAVRKLDFSDDM [T12D]: 6.66
VSSVRKLDFSDTM [A3S]: 6.11
VSARRKLDFSDTM [V4R]: 7.39
VSAVRKLDFDDTM [S10D]: 7.22
VSAQRKLDFSDTM [V4Q]: 7.69
VSAVRKLDFCDTM [S10C]: 7.27

A few entries again (sample 4):
VSAVRKPDFSDTM [L7P]: -0.17
VSAVRKLDSSDTM [F9S]: 0.142
VSGVRKLDFSDTM [A3G]: 5.94
VSAVRKMDFSDTM [L7M]: 0.386
VSAERKLDFSDTM [V4E]: 3.26
VSAVRKLDNSDTM [F9N]: -0.0371
VSAVRKLDFSFTM [D11F]: 7.5
